Assay results collected from several papers.
Each numbered part is a random draw from the data of one study; scales do not carry over between parts.
UniProt P49841, sequence (whole entry, looked up): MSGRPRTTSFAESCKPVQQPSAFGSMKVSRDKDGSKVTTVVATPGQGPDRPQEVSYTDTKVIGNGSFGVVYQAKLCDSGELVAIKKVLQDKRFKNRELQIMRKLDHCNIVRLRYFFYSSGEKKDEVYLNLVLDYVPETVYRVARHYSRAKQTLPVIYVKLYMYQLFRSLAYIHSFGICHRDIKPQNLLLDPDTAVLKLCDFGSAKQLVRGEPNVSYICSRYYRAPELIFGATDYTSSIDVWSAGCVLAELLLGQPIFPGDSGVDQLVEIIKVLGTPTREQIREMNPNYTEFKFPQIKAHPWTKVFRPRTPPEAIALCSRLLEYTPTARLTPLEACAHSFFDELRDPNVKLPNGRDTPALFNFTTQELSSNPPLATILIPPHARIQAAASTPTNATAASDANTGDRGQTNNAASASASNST
UniProt P11362, sequence (whole entry, looked up): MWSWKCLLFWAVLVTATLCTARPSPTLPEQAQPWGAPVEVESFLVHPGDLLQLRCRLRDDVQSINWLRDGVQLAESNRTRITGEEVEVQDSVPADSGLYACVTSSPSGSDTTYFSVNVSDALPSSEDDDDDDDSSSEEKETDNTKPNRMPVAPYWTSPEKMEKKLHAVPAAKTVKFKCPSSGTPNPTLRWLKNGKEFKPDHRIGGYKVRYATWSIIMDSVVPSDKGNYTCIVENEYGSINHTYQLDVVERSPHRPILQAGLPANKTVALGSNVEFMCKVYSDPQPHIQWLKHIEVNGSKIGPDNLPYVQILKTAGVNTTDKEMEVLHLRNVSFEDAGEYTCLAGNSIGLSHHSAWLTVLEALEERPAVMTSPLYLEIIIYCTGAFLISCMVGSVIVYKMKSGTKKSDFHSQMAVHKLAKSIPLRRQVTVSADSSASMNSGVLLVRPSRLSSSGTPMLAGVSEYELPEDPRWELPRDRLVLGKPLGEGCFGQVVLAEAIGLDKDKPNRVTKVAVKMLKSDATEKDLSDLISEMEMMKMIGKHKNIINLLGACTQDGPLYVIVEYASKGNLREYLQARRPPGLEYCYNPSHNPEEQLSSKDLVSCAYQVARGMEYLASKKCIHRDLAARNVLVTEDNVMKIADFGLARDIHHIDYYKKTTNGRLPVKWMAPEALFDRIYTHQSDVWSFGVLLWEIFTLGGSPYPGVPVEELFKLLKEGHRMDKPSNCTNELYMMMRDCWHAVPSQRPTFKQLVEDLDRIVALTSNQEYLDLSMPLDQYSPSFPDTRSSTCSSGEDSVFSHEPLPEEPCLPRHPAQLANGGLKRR
UniProt P78368, sequence (whole entry, looked up): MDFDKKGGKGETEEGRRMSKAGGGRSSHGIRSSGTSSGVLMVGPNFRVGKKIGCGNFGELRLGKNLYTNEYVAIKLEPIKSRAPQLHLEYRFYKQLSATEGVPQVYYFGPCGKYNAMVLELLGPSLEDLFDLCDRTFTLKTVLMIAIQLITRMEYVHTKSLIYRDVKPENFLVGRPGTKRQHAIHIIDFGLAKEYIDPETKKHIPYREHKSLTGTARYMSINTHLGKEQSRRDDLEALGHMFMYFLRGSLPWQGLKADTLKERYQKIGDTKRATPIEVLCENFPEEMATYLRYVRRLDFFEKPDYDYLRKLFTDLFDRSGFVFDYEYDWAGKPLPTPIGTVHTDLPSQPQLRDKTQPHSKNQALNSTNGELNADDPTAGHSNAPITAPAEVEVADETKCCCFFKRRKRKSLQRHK

Set 1
SMILES: O=C1NC(=O)c2c1c1c3ccccc3n3c1c1c2c2ccccc2n1[C@H]1CC[C@@H]3O1
Read-out: enzyme activity
Mode: inhibitor
Tested at: 0.5 µM
Baseline: control
target | remaining activity [%]
FGFR1 (Homo sapiens, UniProt P11362) | 29.1
GSK3B (Homo sapiens, UniProt P49841) | 4.6
CSNK1G2 (Homo sapiens, UniProt P78368) | 81.8

Mixed results
pknB: Serine/threonine-protein kinase PknB (pknB, Mycobacterium tuberculosis, UniProt P9WI81)
UniProt P9WI81, sequence (whole entry, looked up): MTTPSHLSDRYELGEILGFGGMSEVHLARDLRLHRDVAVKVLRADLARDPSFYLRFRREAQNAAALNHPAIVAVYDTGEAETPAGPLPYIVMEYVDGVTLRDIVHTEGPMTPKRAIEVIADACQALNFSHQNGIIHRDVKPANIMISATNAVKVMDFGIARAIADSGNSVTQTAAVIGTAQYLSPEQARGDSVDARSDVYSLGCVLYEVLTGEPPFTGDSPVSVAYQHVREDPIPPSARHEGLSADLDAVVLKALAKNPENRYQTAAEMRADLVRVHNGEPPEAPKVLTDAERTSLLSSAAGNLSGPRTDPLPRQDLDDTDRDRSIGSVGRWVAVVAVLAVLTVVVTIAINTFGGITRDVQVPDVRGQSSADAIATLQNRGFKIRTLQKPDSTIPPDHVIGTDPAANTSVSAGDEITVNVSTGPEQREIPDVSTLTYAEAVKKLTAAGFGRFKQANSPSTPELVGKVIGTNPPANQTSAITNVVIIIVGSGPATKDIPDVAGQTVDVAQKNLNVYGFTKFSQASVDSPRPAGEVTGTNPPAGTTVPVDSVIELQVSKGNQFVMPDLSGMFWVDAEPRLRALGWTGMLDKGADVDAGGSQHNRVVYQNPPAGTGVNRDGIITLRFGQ
Compound | target or system | test | system | conditions | endpoint | result
CC(C)(C)NC(=O)c1cncn1C(c1ccc(Cl)cc1)c1ccc(Cl)cc1 | – | – | mouse, microsomes or S9 | 2 µM, 0.5 h | remaining compound | 74.8%
C[C@H](c1ccc(F)cc1)N(Cc1cccc(C(=O)O)c1)C(=O)c1cnc2ccccc2c1 | pknB | cell-free assay, competition with immobilised ligand | – | 1 µM | remaining binding | 94%
COc1ccc(CN(C(=O)[C@@H](N)Cc2c(C)cc(C(N)=O)cc2C)[C@@H](C)c2nc(-c3ccccc3)c[nH]2)cc1C(=O)O | HaCaT | – | – | 100 µM, 60 h | viability | 139%
O=C1CCC(N2Cc3c(ccc4c3OCC43CCN(Cc4ccccc4)CC3)C2=O)C(=O)N1 (centres unmarked) | – | – | Caco-2 | 10 µM, 2 h | efflux ratio | 1.11
CCC(=O)N[C@@H]1CC[C@H](C(=O)N(C)c2ccc(-c3nc4ccccc4o3)cc2)C1 | pknB | cell-free assay, competition with immobilised ligand | – | 1 µM | remaining binding | 78%

Repeated from above (set 1):
target | remaining activity [%]
FGFR1 (Homo sapiens, UniProt P11362) | 29.1
